Assay results collected from several papers.
Protocols differ between the studies behind these lines. Numbers after ± are the reported error.
CYP2E1: Cytochrome P450 2E1 (CYP2E1, Homo sapiens, UniProt P05181)
Sequence of UniProt P05181 (whole entry, looked up): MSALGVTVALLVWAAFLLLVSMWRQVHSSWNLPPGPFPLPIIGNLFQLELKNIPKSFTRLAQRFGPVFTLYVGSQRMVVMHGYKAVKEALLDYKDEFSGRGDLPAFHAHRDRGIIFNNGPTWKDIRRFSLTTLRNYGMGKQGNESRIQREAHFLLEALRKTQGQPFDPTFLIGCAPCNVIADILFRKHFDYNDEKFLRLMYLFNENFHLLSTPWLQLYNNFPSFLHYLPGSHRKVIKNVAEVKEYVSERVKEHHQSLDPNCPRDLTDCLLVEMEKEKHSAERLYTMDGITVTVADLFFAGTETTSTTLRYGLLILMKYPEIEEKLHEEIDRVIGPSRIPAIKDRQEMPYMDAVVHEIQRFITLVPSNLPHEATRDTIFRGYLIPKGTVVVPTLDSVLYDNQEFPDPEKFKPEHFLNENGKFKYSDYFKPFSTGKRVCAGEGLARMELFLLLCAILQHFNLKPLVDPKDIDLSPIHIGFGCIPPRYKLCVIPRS
CYP1A2: Cytochrome P450 1A2 (CYP1A2, Homo sapiens, UniProt P05177)
PROK: Proteinase K (PROK, Engyodontium album, UniProt P06873)
Sequence of UniProt P06873 (whole entry, looked up): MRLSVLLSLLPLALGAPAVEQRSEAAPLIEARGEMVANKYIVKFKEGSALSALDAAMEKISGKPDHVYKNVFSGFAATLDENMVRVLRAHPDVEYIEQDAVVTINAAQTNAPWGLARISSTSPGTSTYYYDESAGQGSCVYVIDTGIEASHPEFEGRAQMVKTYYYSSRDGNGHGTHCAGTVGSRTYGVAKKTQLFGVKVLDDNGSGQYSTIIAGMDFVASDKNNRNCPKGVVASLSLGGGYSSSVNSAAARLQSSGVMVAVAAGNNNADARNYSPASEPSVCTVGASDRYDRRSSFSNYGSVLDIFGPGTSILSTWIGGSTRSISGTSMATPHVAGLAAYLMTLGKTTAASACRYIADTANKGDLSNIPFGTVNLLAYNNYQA
Sequence of UniProt P28065 (whole entry, looked up): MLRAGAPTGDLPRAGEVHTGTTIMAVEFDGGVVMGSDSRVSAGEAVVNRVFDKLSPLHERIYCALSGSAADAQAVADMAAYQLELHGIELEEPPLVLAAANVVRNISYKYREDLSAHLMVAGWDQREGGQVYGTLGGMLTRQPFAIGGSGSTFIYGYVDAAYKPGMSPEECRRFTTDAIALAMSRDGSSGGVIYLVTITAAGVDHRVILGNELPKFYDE
Sequence of UniProt P61073 (whole entry, looked up): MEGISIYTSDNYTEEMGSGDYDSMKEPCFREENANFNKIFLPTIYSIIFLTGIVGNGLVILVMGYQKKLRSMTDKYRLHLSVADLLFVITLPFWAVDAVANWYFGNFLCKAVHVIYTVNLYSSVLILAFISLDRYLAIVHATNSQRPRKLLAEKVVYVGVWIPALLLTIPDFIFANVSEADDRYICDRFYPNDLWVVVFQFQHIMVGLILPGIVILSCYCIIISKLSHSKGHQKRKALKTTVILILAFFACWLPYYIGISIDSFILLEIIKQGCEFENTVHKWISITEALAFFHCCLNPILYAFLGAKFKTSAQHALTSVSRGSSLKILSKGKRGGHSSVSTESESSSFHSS
Sequence of UniProt Q14524 (whole entry, looked up): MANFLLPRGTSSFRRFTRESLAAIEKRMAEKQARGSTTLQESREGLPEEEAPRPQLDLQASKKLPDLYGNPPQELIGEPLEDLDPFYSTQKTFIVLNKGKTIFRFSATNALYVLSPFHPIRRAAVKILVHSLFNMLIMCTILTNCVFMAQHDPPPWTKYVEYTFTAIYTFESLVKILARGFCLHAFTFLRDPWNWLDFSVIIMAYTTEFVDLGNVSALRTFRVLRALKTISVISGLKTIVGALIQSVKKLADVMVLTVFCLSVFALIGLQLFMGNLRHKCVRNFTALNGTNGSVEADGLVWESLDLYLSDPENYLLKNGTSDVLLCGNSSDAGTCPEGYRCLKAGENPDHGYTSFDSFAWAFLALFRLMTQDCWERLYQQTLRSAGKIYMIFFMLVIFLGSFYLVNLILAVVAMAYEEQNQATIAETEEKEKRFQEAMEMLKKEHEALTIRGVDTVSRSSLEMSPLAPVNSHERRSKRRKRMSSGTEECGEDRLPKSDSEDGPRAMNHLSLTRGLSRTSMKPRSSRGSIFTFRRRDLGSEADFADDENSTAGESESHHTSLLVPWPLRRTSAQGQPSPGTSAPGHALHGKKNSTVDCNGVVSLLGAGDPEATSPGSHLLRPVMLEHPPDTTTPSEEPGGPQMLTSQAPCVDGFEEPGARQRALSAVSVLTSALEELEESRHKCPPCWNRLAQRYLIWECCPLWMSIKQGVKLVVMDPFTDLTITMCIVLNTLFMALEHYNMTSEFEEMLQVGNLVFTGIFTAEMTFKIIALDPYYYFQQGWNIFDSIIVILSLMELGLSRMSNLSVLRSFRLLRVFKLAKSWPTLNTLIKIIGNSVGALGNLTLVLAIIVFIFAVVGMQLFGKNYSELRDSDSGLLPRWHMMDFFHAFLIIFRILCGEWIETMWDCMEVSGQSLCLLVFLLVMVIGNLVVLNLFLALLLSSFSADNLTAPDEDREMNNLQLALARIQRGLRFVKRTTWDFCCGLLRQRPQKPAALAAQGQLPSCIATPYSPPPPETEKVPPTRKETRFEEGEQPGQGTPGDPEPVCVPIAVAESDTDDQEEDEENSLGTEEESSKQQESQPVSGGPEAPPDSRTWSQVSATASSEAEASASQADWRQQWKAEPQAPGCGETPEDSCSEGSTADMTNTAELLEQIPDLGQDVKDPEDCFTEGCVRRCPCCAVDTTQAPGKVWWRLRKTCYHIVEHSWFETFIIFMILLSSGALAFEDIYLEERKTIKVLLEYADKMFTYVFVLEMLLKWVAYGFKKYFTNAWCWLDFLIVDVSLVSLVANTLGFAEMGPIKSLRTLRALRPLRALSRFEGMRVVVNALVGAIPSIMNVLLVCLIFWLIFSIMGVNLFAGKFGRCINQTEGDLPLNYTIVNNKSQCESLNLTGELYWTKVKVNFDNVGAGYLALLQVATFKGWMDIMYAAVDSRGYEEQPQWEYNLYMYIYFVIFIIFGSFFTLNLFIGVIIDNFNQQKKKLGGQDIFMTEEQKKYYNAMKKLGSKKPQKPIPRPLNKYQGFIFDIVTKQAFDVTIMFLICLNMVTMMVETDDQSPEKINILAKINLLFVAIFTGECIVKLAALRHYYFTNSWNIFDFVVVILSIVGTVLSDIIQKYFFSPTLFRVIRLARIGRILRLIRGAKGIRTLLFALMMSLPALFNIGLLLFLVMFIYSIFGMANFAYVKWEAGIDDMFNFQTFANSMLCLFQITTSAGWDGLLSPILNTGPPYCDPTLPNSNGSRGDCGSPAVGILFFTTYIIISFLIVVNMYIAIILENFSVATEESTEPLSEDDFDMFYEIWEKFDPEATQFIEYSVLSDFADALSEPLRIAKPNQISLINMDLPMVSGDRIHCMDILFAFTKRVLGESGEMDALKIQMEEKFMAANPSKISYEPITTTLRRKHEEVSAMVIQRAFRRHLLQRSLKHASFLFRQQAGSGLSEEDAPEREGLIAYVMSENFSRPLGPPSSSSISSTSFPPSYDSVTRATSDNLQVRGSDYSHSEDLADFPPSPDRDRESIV
Sequence of UniProt P40306 (whole entry, looked up): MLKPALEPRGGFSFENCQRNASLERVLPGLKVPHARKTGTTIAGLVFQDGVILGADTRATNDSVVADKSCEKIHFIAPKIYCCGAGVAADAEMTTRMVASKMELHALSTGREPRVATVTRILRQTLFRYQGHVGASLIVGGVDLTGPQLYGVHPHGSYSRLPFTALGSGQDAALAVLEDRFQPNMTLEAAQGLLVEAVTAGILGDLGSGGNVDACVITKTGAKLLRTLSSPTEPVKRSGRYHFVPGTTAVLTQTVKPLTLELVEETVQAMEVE
Sequence of UniProt P08684 (whole entry, looked up): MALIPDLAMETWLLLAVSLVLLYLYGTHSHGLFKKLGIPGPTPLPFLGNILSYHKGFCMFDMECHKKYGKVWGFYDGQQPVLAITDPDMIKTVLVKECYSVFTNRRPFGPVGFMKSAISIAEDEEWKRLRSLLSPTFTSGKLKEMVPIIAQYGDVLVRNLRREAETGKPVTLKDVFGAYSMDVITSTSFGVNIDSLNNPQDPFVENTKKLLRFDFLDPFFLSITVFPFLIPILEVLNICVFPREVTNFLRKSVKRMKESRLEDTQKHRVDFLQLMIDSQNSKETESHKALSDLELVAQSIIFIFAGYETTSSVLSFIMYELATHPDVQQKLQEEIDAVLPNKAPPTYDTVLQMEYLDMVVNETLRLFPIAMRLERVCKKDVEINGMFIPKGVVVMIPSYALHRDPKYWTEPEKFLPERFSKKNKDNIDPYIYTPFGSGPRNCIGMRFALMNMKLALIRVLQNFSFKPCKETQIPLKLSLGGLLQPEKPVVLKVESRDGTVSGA
Sequence of UniProt P28062 (whole entry, looked up): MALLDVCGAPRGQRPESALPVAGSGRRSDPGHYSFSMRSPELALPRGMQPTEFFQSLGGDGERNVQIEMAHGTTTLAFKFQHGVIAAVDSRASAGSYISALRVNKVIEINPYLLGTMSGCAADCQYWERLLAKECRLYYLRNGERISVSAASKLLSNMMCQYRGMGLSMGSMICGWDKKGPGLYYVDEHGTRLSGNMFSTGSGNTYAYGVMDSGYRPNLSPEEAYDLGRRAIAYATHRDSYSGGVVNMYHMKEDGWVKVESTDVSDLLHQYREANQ

SMILES	target	test	system	setting	scale	measurement	result
C=CCOCC=C	CYP2E1	enzyme activity	baculosomes	1 h, pH 7.4, added: p-nitrophenol	–	maximal inhibition	100%
C=CC1CN2CCC1CC2C(O)c1c(-c2ccc(N=Nc3ccccc3)cc2)cnc2ccc(OC)cc12 (stereo not shown)	SCN5A (Homo sapiens, UniProt Q14524)	sodium current, blocker, whole-cell patch clamp	HEK-293T	10 µM, pH 7.3, cis isomer use-dependent, added: light 365 nm	–	inhibition	61.1 ± 4.8%
CC(C)(O)c1ccccc1CC[C@H](c1cccc(/C=C/c2ccc3ccc(Cl)cc3n2)c1)[S+]([O-])CC1(CC(=O)O)CC1 (stereo partly shown)	CYP1A2	inhibitor	human liver microsomes	2 µM, pH 7.4, added: phenacetin	–	inhibition	6.14%
CN1C(=O)[C@@H](Cc2ccc(O)cc2)NC(=O)CNC(=O)[C@H](Cc2ccc3ccccc3c2)NC(=O)[C@H](CCCNC(=N)N)NC(=O)[C@H]1CCCNC(=O)c1ccc(CNC(=O)CN2CCN(CC(=O)O)CCN(CC(=O)O)CCN(CC(=O)O)CC2)cc1 [gallium-68 labelled]	CXCR4 (Homo sapiens, UniProt P61073)	PET imaging	human, muscle	–	–	SUVmean	0.77
O=C1Cc2cc(CCN3CCN(C4=NS(=O)(=O)c5ccccc54)CC3)c(Cl)cc2N1	CYP1A2	inhibitor	human liver microsomes	10 µM, pH 7.4, added: phenacetin	–	inhibition	45.6%
CC[C@H](C)[C@H](NC(=O)[C@H](Cc1c[nH]cn1)NC(=O)[C@H](CC(N)=O)NC(=O)[C@H](Cc1ccccc1)NC(=O)[C@H](Cc1ccc(O)cc1)NC(=O)[C@H](Cc1ccc(O)cc1)NC(=O)[C@@H](NC(=O)[C@H](CCCNC(=N)N)NC(=O)CNC(=O)[C@H](CO)NC(=O)[C@H](CO)NC(=O)[C@H](CCCNC(=N)N)NC(=O)[C@H](CO)NC(=O)[C@H](CCSC)NC(=O)[C@H](CCCNC(=N)N)NC(=O)[C@H](CCCCN)NC(=O)[C@H](CCC(=O)O)NC(=O)[C@H](Cc1c[nH]c2ccccc12)NC(=O)CNC(=O)[C@@H]1CCCN1C(=O)[C@@H]1CCCN1C(=O)[C@H](CC(C)C)NC(=O)[C@@H](N)CCCCN)C(C)C)C(=O)N[C@H](C(=O)N[C@@H](CC(N)=O)C(=O)N[C@@H](C)C(=O)N[C@@H](Cc1ccc(OCc2cn(CCOCCOCCOCCOC)nn2)cc1)C(=O)N[C@@H](CCC(N)=O)C(=O)N[C@@H](Cc1ccccc1)C(=O)N[C@@H](CCC(=O)O)C(=O)N[C@@H](CCCNC(=N)N)C(=O)N1CCC[C@H]1C(=O)N[C@@H](CO)C(=O)NCC(=O)O)[C@@H](C)O	PROK	proteolysis, substrate, HPLC	–	room temperature	relative to: PEGylated over non-PEGylated variant, negative = more stable	ln rate constant ratio	-0.1 ± 0.5
CC[C@H](C)[C@H](NC(=O)[C@H](CCCNC(=N)N)NC(=O)[C@H](CCC(=O)O)NC(=O)[C@H](Cc1ccccc1)NC(=O)[C@H](CC(N)=O)NC(=O)CNC(=O)[C@H](C)NC(=O)[C@H](CCC(=O)O)NC(=O)[C@H](CCC(N)=O)NC(=O)[C@H](C)NC(=O)[C@H](CC(C)C)NC(=O)[C@@H](NC(=O)[C@H](C)NC(=O)[C@H](C)NC(=O)[C@H](CC(=O)O)NC(=O)[C@@H](NC(=O)[C@H](CCCCN)NC(=O)[C@H](CCSC)NC(=O)[C@H](CCC(=O)O)NC(=O)[C@H](C)N)[C@@H](C)O)[C@@H](C)O)C(=O)O	PSMB8/Proteasome subunit beta type-9/Proteasome subunit beta type-10 (Homo sapiens, UniProt P28062+P28065+P40306)	proteasome digestion, substrate, LC-MS/MS	–	concentration not given, 20 h, pH 7.6, 37 °C	–	parent peptide reduction	15 to 25%
Oc1c(Br)cccc1Br	CYP2E1	p-nitrophenol hydroxylation, competitive inhibitor, Cheng-Prusoff from IC50	–	added: p-nitrophenol	–	Ki	3.5 µM
CC(C)C[C@@H]1NC(=O)C[C@@H](C(=O)N[C@@H](Cc2c[nH]c3ccccc23)C(=O)N[C@@H](CC(N)=O)C(=O)N[C@@H](C)C(=O)N2CCC[C@H]2C(=O)NCC(=O)N[C@@H](Cc2c[nH]c3ccccc23)C(=O)N[C@@H](Cc2ccccc2)C(=O)O)NC(=O)[C@H](C)NC(=O)[C@H](CCC(N)=O)NC(=O)[C@H](C(C)C)NC(=O)[C@H](C)NC(=O)[C@H](C(C)C)NC(=O)[C@H](C(C)C)NC1=O	carboxypeptidase Y	–	–	12 h, pH 6.0, 28 °C	–	proteolytic stability	stable
CCN(CC)CCOc1ccc(-c2nnn(Cc3ccc(OC)cc3)c2N)cc1	CYP1A2	enzyme activity, inhibitor	–	concentration not given	–	inhibition	no inhibition
CC[C@H](C)[C@H](NC(=O)[C@H](Cc1c[nH]cn1)NC(=O)[C@H](CC(N)=O)NC(=O)[C@H](Cc1ccccc1)NC(=O)[C@H](Cc1ccc(O)cc1)NC(=O)[C@H](Cc1ccc(O)cc1)NC(=O)[C@@H](NC(=O)[C@H](CCCNC(=N)N)NC(=O)CNC(=O)[C@H](CO)NC(=O)[C@H](CO)NC(=O)[C@H](CCCNC(=N)N)NC(=O)[C@H](Cc1ccc(OCc2cn(CCOCCOCCOCCOC)nn2)cc1)NC(=O)[C@H](CCSC)NC(=O)[C@H](CCCNC(=N)N)NC(=O)[C@H](CCCCN)NC(=O)[C@H](CCC(=O)O)NC(=O)[C@H](Cc1c[nH]c2ccccc12)NC(=O)CNC(=O)[C@@H]1CCCN1C(=O)[C@@H]1CCCN1C(=O)[C@H](CC(C)C)NC(=O)[C@@H](N)CCCCN)C(C)C)C(=O)N[C@H](C(=O)N[C@@H](CC(N)=O)C(=O)N[C@@H](C)C(=O)N[C@@H](CO)C(=O)N[C@@H](CCC(N)=O)C(=O)N[C@@H](Cc1ccccc1)C(=O)N[C@@H](CCC(=O)O)C(=O)N[C@@H](CCCNC(=N)N)C(=O)N1CCC[C@H]1C(=O)N[C@@H](CO)C(=O)NCC(=O)O)[C@@H](C)O	PROK	proteolysis, substrate, HPLC	–	room temperature	relative to: PEGylated over non-PEGylated variant, negative = more stable	ln rate constant ratio	1.3 ± 0.6
C=CC(=O)Nc1cc(Nc2nccc(-c3cn(C)c4ccccc34)n2)c(OCC(F)(F)F)nc1N(C)CCN(C)C	Cytochrome P450 3A4 (CYP3A4, Homo sapiens, UniProt P08684)	enzyme activity, inhibitor	human, liver microsomes	10 µM, midazolam probe	–	activity vs control	78%
CC[C@H](C)[C@H](NC(=O)[C@H](Cc1c[nH]cn1)NC(=O)[C@H](CC(N)=O)NC(=O)[C@H](Cc1ccccc1)NC(=O)[C@H](Cc1ccc(O)cc1)NC(=O)[C@H](Cc1ccc(O)cc1)NC(=O)[C@@H](NC(=O)[C@H](CCCNC(=N)N)NC(=O)CNC(=O)[C@H](CO)NC(=O)[C@H](CC(=O)N(CCOCCOCCOCCOC)CCOCCOCCOCCOC)NC(=O)[C@H](CCCNC(=N)N)NC(=O)[C@H](CO)NC(=O)[C@H](CCSC)NC(=O)[C@H](CCCNC(=N)N)NC(=O)[C@H](CCCCN)NC(=O)[C@H](CCC(=O)O)NC(=O)[C@H](Cc1c[nH]c2ccccc12)NC(=O)CNC(=O)[C@@H]1CCCN1C(=O)[C@@H]1CCCN1C(=O)[C@H](CC(C)C)NC(=O)[C@@H](N)CCCCN)C(C)C)C(=O)N[C@H](C(=O)N[C@@H](CC(N)=O)C(=O)N[C@@H](C)C(=O)N[C@@H](CO)C(=O)N[C@@H](CCC(N)=O)C(=O)N[C@@H](Cc1ccccc1)C(=O)N[C@@H](CCC(=O)O)C(=O)N[C@@H](CCCNC(=N)N)C(=O)N1CCC[C@H]1C(=O)N[C@@H](CO)C(=O)NCC(=O)O)[C@@H](C)O	PROK	proteolysis, substrate, HPLC	–	room temperature	relative to: PEGylated over non-PEGylated variant, negative = more stable	ln rate constant ratio	0.4 ± 0.5
[64Cu+2].c1ccc(CNCc2ccc(CN3CCCNCCNCCCNCC3)cc2)nc1	CXCR4	–	NOD/SCID mouse, U87 and U87-stb-CXCR4 xenografts, stomach	iv, 90 min, no blocking dose, ex vivo	–	tissue uptake	2.46 ± 0.15 %ID/g
CC[C@H](C)[C@H](NC(=O)[C@H](Cc1c[nH]cn1)NC(=O)[C@H](CC(N)=O)NC(=O)[C@H](Cc1ccccc1)NC(=O)[C@H](Cc1ccc(O)cc1)NC(=O)[C@H](Cc1ccc(O)cc1)NC(=O)[C@@H](NC(=O)[C@H](CCCNC(=N)N)NC(=O)CNC(=O)[C@H](CO)NC(=O)[C@H](Cc1ccc(OCc2cn(CCOCCOCCOCCOC)nn2)cc1)NC(=O)[C@H](CCCNC(=N)N)NC(=O)[C@H](CO)NC(=O)[C@H](CCSC)NC(=O)[C@H](CCCNC(=N)N)NC(=O)[C@H](CCCCN)NC(=O)[C@H](CCC(=O)O)NC(=O)[C@H](Cc1c[nH]c2ccccc12)NC(=O)CNC(=O)[C@@H]1CCCN1C(=O)[C@@H]1CCCN1C(=O)[C@H](CC(C)C)NC(=O)[C@@H](N)CCCCN)C(C)C)C(=O)N[C@H](C(=O)N[C@@H](CC(N)=O)C(=O)N[C@@H](C)C(=O)N[C@@H](CO)C(=O)N[C@@H](CCC(N)=O)C(=O)N[C@@H](Cc1ccccc1)C(=O)N[C@@H](CCC(=O)O)C(=O)N[C@@H](CCCNC(=N)N)C(=O)N1CCC[C@H]1C(=O)N[C@@H](CO)C(=O)NCC(=O)O)[C@@H](C)O	PROK	proteolysis, substrate, HPLC	–	room temperature	relative to: PEGylated over non-PEGylated variant, negative = more stable	ln rate constant ratio	0 ± 0.5
CC(C)(O)c1ccccc1CC[C@H](c1cccc(/C=C/c2ccc3ccc(Cl)cc3n2)c1)S(=O)(=O)CC1(CC(=O)O)CC1	CYP1A2	inhibitor	human liver microsomes	2 µM, pH 7.4, added: phenacetin	–	inhibition	< 0%

Repeated from above:
SMILES	target	test	system	setting	scale	measurement	result
CC[C@H](C)[C@H](NC(=O)[C@H](Cc1c[nH]cn1)NC(=O)[C@H](CC(N)=O)NC(=O)[C@H](Cc1ccccc1)NC(=O)[C@H](Cc1ccc(O)cc1)NC(=O)[C@H](Cc1ccc(O)cc1)NC(=O)[C@@H](NC(=O)[C@H](CCCNC(=N)N)NC(=O)CNC(=O)[C@H](CO)NC(=O)[C@H](CO)NC(=O)[C@H](CCCNC(=N)N)NC(=O)[C@H](CO)NC(=O)[C@H](CCSC)NC(=O)[C@H](CCCNC(=N)N)NC(=O)[C@H](CCCCN)NC(=O)[C@H](CCC(=O)O)NC(=O)[C@H](Cc1c[nH]c2ccccc12)NC(=O)CNC(=O)[C@@H]1CCCN1C(=O)[C@@H]1CCCN1C(=O)[C@H](CC(C)C)NC(=O)[C@@H](N)CCCCN)C(C)C)C(=O)N[C@H](C(=O)N[C@@H](CC(N)=O)C(=O)N[C@@H](C)C(=O)N[C@@H](Cc1ccc(OCc2cn(CCOCCOCCOCCOC)nn2)cc1)C(=O)N[C@@H](CCC(N)=O)C(=O)N[C@@H](Cc1ccccc1)C(=O)N[C@@H](CCC(=O)O)C(=O)N[C@@H](CCCNC(=N)N)C(=O)N1CCC[C@H]1C(=O)N[C@@H](CO)C(=O)NCC(=O)O)[C@@H](C)O	PROK	proteolysis, substrate, HPLC	–	room temperature	relative to: PEGylated over non-PEGylated variant, negative = more stable	ln rate constant ratio	-0.1 ± 0.5
